Results collected from several papers.
Lines come from different studies, so protocols differ. Values joined by “and” are separate records of one study, mostly repeats; a detail may differ. Numbers after ± are the reported error.

Compound	assay	system	setting	how to read	measurement	result
FC(F)(F)c1ccc2c(c1)[C@@H]1CNC[C@H]2C1	intermittent two-bottle choice	Wistar rat, 20% ethanol drinking	subcutaneous, 1 mg/kg, 6 h	relative to: ethanol over total fluid intake	ethanol preference	46 ± 3%
Cc1cccc(C)c1NC(=O)C1CCCCN1 (stereo not drawn)	Aδ-fiber conduction, ex vivo single-fiber recording	C57BL/6 mouse, sciatic nerve trunk, PBS	15 mM, 10 min, pH 7.4		conduction velocity	no effect
[Cl][Ru-]([Cl])([Cl])[Cl].[Na+].c1ccc2[nH]ncc2c1.c1ccc2[nH]ncc2c1	CT, RECIST 1.1	human	780 mg/m2		duration of response	25 weeks
CC[C@@H](C)[C@@H](NC(=O)[C@@H](Cc1ccc(O)cc1)NC(=O)[C@H]1CCCN1C(=O)[C@@H](CCCNC(=N)N)NC(=O)[C@H](N)Cc1c[nH]cn1)C(=O)N[C@H](C)C(=O)N[C@H](Cc1c[nH]cn1)C(=O)N[C@H](CCCNC(=N)N)C(=O)N[C@H](CCCCNC(=O)c1cccc(S(=O)(=O)F)c1)C(=O)N[C@H](Cc1ccc(O)cc1)C(=O)N[C@H](CO)C(=O)N[C@H](Cc1ccccc1)C(N)=O	ex vivo flow cytometry	B16 tumour-bearing mice, tumour	dose not given		IFN-γ+ CD4+ T cell frequency	7.97% and 6.97% and 4.24% and 3% and 2.94%
CCCCC1(CCCC)CN(c2ccccc2)c2cc(SC)c(OCC(=O)N[C@@H](C(=O)NCC(=O)O)c3ccccc3)cc2S(=O)(=O)C1	item: HDL cholesterol	human, serum	2.5 mg once daily, day 9		serum HDL-C	55.3 mg/dL
COc1cccc(NCC(F)Cn2c3ccc(Br)cc3c3cc(Br)ccc32)n1 (stereo not drawn)	survival of newborn neurons	Mus musculus, BrdU-labelled newborn neurons	intraperitoneal, 7 days		minimum effective dose	1 mg/kg/day
CN1CCN(S(=O)(=O)c2cc([N+](=O)[O-])ccc2N(CCOS(C)(=O)=O)CCOS(C)(=O)=O)CC1		NSG mice, sample BJ PDX	intraperitoneal, 25 mg/kg weekly x3		event-free survival	> 391 days
CCCCC1CNC2CCc3ccc(OC)cc3C12.Cl (racemic)	RNA sequencing, item: complex III subunit genes	SAMP8 mice, hippocampus	intracerebroventricular, 1.0 µg/µL, 24 h	relative to: vehicle	mRNA level	increased
C=CC(=O)Nc1cc(Nc2ncc(Cl)c(Nc3ccccc3C(=O)C(=O)N(C)C)n2)c(OC)cc1N1CCN(C)CC1	RECIST v1.1 best response	human EGFR T790M NSCLC	oral, 25 mg/day, per-protocol set		patients with progressive disease	100%
NNc1ccccc1	hydrazine ligation kinetics, absorbance		concentration not given, 15 s, with: 2-formylphenylboronic acid		normalised absorbance	0.843
CS(=O)(=O)c1ccc(-c2nnc(/C=C/c3nnc(-c4ccc(C#N)cc4)o3)n2-c2ccccc2Cl)nc1	RNA-seq GSEA, item: HALLMARK_MYC_TARGETS_V1	organoids, small intestinal, Apc Q1405X, mouse	dose not given, wild-type organoids	relative to: DMSO, direction not given	normalized enrichment score	-2.82
CC[C@H](C)[C@@H]1NC(=O)[C@@H]2CCCN2C(=O)[C@H](CC(C)C)NC(=O)[C@H](CC(C)C)NC(=O)CNC(=O)[C@@H](NC(=O)[C@@H](NC(=O)[C@H](CC(=O)O)NC(=O)CNC(=O)[C@@H](NC(=O)[C@H](C)NC(=O)CNC(=O)[C@H](CCCCN)NC(=O)[C@H](CC(C)C)NC(=O)[C@H](CC(C)C)NC(=O)[C@H](CCCCN)NC(=O)CNC(=O)[C@@H](NC(=O)[C@@H](N)CC(C)C)C(C)C)C(C)C)C(C)C)CSSC[C@@H](C(=O)O)NC1=O	RNA-seq, item: Usb1	mouse, traumatic brain injury model, frontal cortex and hippocampus	dose not given	relative to: TBI alone	log2 fold change	-0.883
Cc1nc(Nc2ccc(CC(=O)O)cc2)nc(Nc2ccc(F)c(C(F)(F)F)c2)c1C	item: PDE4A	C57BL/6J mice, high-fat diet, liver	intraperitoneal, 0.3 mg/kg daily, 60% fat diet 12 weeks, dosed last four	relative to: vehicle	mRNA level	no effect
COc1ccc2c(c1)CC[C@@H]1[C@@H]2CC[C@]2(C)[C@@H](NCCCCCCN3C(=O)C=CC3=O)CC[C@@H]12	calcium response, plateau	N2a, mouse	1 µM, with: ATP 300 µM		inhibition	45%
C=CCNc1c(O)cc2c(O)c1C[C@@H](C)C[C@H](OC)[C@H](O)[C@@H](C)/C=C(\C)[C@H](OC(N)=O)[C@@H](OC)/C=C\C=C(/C)C(=O)N2	RECIST v1.0	human GIST	concentration not given, PR or SD at least 6 weeks		disease control rate	73%
C[C@H]1O[C@@H](O[C@H]2CC[C@@]3(C)[C@@H](CC[C@]4(C)[C@@H]3C=C[C@]35OC[C@@]6(CCC(C)(C)C[C@H]63)[C@@H](O)C[C@]54C)[C@]2(C)CO)[C@H](O)[C@@H](O[C@@H]2O[C@H](CO)[C@@H](O)[C@H](O)[C@H]2O)[C@H]1O	H&E staining	hepatic SIRT1 knockdown mice, no ethanol, liver	dose not given, AAV8-TBG-shRNA, high dose		steatosis area	14.9% and 11.1% and 8.68% and 11.6% and 12.5% and 10.6%
Cc1cn(-c2cc(NC(=O)c3ccc(C)c(Nc4nccc(-c5cccnc5)n4)c3)cc(C(F)(F)F)c2)cn1		human patients	dose not given, 6 months vs baseline, within treated group	relative to: baseline, direction not given	ADAS-Cog score change	4.1
C[C@]12CC[C@H](O)C[C@H]1CC[C@@H]1[C@@H]2CC[C@]2(C)[C@@H](c3ccc(=O)oc3)CC[C@]12O		female nude mouse LCC2 xenograft	0.5 mg/kg, day 15, tamoxifen-resistant		tumour volume	82.3 mm3 and 96.3 mm3 and 89.9 mm3 and 81.1 mm3 and 123 mm3 and 68.6 mm3 and 101 mm3
CC(C)C1CCC(N2CCC(N3C(=O)C(=O)c4ccccc43)CC2)CC1 (stereo not drawn)		conscious Sprague-Dawley rat	intravenous bolus, 100 nmol/kg		heart rate	decreased
C[C@]1(CO)Cc2ncn(-c3ccc(C#N)c(Cl)c3)c2C(=O)O1	aldosterone synthesis, inhibitor, item: sodium	healthy Japanese adults, urine	40 mg, 0-24 h at steady state, multiple rising dose		urinary excretion	127 mmol
Clc1cc2c(cc1Cl)Oc1cc(Cl)c(Cl)cc1O2	RNA-Seq, item: Lta4h	female Sprague-Dawley rat, liver	dose not given	relative to: vehicle	mRNA level	1.2 fold

Some of these lines once more:
Compound	assay	system	setting	how to read	measurement	result
C=CC(=O)Nc1cc(Nc2ncc(Cl)c(Nc3ccccc3C(=O)C(=O)N(C)C)n2)c(OC)cc1N1CCN(C)CC1	RECIST v1.1 best response	human EGFR T790M NSCLC	oral, 25 mg/day, per-protocol set		patients with progressive disease	100%
NNc1ccccc1	hydrazine ligation kinetics, absorbance		concentration not given, 15 s, with: 2-formylphenylboronic acid		normalised absorbance	0.843
